Assay results from different studies.
Numbered parts are unrelated; each lists some results of a single study. Positions count from the first letter of the parent shown.

Set 1 — target: CCNB3, cyclin fold, Cln2 fusion (human); method: yeast growth competition, sequencing; medium: yeast; setting: weak parent motif; reference: not given; reading: higher = stronger binding
Starting sequence: MICAL3 docking peptide (human); LQLRRQLSFSEDS
Substitution	normalised enrichment score
R4H	-0.158
F9P	-0.125
D12T	0.373
E11H	0.132
F9H	-0.154
D12A	0.0858
R5C	0.0419
R4T	-0.0715
L3K	-0.464
S8Q	0.149
S8H	0.554
L3R	0.0963
E11K	0.515

Set 2 — method: RNA Bind-n-Seq; molecule type: RNA; medium: in vitro; tested at: 365 nM; reference: no-protein control; reading: higher = stronger binding
Target: RNA binding protein fox-1 homolog 2, RRM domain, GST-SBP tag (RBFOX2, Homo sapiens, UniProt O43251-10, residues 100-194)
Setting: natural RNA segment, single round, ends assumed
Target sequence (chain): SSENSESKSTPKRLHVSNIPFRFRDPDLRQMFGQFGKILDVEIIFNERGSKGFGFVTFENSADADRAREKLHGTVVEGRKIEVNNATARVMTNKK
Oligonucleotide	RBNS enrichment (R)
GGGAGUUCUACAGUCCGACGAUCUGACAGUAUUAUGUAAUUUUUAGCGUGGGUAGAUGGGAGUGUCGCUUGUAUGUUACCAUACAGCUGACAUGUAUUUUUUGUCUAUUCUUUAUUAUCUUAGUAGUUUCAUGUGGAAUUCUCGGGUGCCAA	0.289
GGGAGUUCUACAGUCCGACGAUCGCCUCCCUAGUCUAUCUCAUUUCUCCUUCCCAGAAAGUCAGCGAGAUUCACCAUCACAGAACAGCAAGGGGCUUUAAGAUGGAUGUCUCAAUGGGGAGGGGCUGGAGACAUGGAAUUCUCGGGUGCCAA	0.561
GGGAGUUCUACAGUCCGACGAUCAGGUAUGGGGCAGUCCAGUUUAUAACUUUGCAACCAAACCCAAGCCUGCUCUUUUUGAAGCAGCUGAUUGGAGAGUAAAGAUUUUCAUUCAAUAAAGCUAAACCUCAGGGUGGAAUUCUCGGGUGCCAA	0.32
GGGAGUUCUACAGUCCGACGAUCUCACUGUAUAGACUGUUAAAUUUGAUUUCUUAUUACCUAUUGUUAAAUAAACUGUGUGAGACAGACACCCUGACUUUGUUUCACUUGAUAACACAUCUUUGUCUUGGAGUUGGAAUUCUCGGGUGCCAA	1.01
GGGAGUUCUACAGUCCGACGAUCGUCUGUUGUGUGUCAUGCCAGUGAGGGACGUCAGACUUGGCUCAGCUCGGGGAGCCUUAGCCGCCCAUGCACUGGGGACGCUCCGCUGCCGUGCCGCCUGCACUCCUCAGUGGAAUUCUCGGGUGCCAA	0.486
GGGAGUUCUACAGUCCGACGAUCAACCAGCUGCUGGUGUAAUGUACAGUUAUAUUUGUCUAUAAAUGGAGCUGUUUAUGGCAAUUUAAUACCAUUCUCUUUGUAAAGUGAAUAAAUAUUCAUCUUUACCCAGUUGGAAUUCUCGGGUGCCAA	0.447
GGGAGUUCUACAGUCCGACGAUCAGUGUAGGCCAGCCAUCAUCACAAGGGCCAAGCCCCAAACCCUGUGCUCAAACUGUCAUGGCACCACGGGCAAUGCGGUCCUCCCUACCGUUCUCCUUCCCCUUCUCUGCUGGAAUUCUCGGGUGCCAA	0.716
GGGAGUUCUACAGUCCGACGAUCCUGAGGCUGAGGGUAGAUGGGUUCAGUUCAGUGUCUCCUGCCCAGACUGGACAUCUUGGUCUUUUUCUCAGGUCUGAAAGGAACCAUUUUUUGGUAUGAUAAAGACCCCAUGGAAUUCUCGGGUGCCAA	0.319
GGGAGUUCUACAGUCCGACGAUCCCUCCAUCCCAGCCUGUUGCCCUUCAGUUUUCUGGUUGUUUGUGUCGGCAGCGGGCCAACUGUGGUUUCUCUCUUGCCAUGAUGACUUCUAAUUGCCAUGUAUAGUAUGUUGGAAUUCUCGGGUGCCAA	1.62
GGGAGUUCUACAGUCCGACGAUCAGGAAACUUUUCUUAUAAAGAGAAAAAAAAGUUACAAUUUACUACUGCCCUAGUUAGGACAGACAUGCUUGUCUCUCCUAGGUAAAAGGUCAGGUCCCCGAGUCAUUUCUUGGAAUUCUCGGGUGCCAA	0.461
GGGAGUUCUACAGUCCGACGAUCAGCACAAUGUGACCCAACUUAAAAUUUGGGGGAAAAAGAAUGCAGGAGUGAAAUAACCAAGUCAAAACCAUGUACUAUCUCCUUGGGGGUUAGGGAUGCUAAGAAGAGCCUGGAAUUCUCGGGUGCCAA	0.888
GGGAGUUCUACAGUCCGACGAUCCUGUCCCGUCUGUGGCAGAGGUUUCUGGCCAGAGGACCCUUCCCGGUUCAUCUCCCCUCAUCUUCUUUUCCCAACUGUGAAAAUUAGUUCUCCGGUCCCAGCUUCCUGCUUGGAAUUCUCGGGUGCCAA	0.477

Set 3 — method: RNA Bind-n-Seq; molecule type: RNA; medium: in vitro; tested at: 1 µM; setting: whole 134-nt RNA, ends assumed; with: 150 mM KCl; reference: input library; reading: higher = stronger binding
Target: Ras GTPase-activating protein-binding protein 1, RRM domain (G3BP1, Homo sapiens, UniProt Q13283)
Sequence of UniProt Q13283 (whole entry, looked up): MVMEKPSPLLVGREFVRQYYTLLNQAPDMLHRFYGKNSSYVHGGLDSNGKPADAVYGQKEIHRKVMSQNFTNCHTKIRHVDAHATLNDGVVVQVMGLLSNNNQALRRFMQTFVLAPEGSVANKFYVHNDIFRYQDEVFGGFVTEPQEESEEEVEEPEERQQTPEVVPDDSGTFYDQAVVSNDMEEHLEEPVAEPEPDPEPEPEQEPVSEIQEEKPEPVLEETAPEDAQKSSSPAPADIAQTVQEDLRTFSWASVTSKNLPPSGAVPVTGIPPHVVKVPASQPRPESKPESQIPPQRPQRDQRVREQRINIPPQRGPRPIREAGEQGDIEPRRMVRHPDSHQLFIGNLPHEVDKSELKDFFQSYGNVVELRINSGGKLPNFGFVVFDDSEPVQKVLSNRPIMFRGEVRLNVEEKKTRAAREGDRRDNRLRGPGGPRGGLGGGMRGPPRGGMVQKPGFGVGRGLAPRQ
Oligonucleotide	log2 enrichment
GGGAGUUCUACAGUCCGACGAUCUGGGAGGUGGAUUUUGUUUAUUUUUUUAGCUCAUUUCCAGGGGUGGGAAUUUUUUUUUAAUAUGUGUCAUGAAUAAAGUUGCUUUUGAAAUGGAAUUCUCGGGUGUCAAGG	2.08
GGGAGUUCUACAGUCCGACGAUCAGUCCUGUGCUACACAUCGUAUGUACCGAAUCGGGGAGGGGUGGGGUUUUUUUGGGGAAAGUAUUAUGUUACGCCGUUCGGAUCUGCACUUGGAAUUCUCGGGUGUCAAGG	0.886
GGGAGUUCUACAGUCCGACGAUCUCAUUGCAUGAAAAGUGGAAAAGUUUAGAUCUAUGGAAACAGAACUGUUGCCUAUAUGGAAAAUCAGUGCCUUGUGGCAAUACAGGUAAGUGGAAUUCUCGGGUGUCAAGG	-0.234
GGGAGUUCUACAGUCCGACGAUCAAGUCCUGUGCUACACAUCGUAUGUACCGAAUCGGGAAAAGGGGAAAAGGGAAAAGGAAAGUAUUAUGUUACGCCGUUCGGAUCUGCACUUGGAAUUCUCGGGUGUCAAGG	-0.128
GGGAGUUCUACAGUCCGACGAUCAGUCCUGUGCUACACAUCGUAUGUACCGAAUCGGUUUUUGGUUUUUGGGUUUUUGGGAAAGUAUUAUGUUACGCCGUUCGGAUCUGCACUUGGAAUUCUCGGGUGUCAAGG	-0.0705
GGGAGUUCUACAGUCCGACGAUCCAAGUCCUGUGCUACACAUCGUAUGUACCGAAUCGGGGAAAGGGGAAAGGGAAAGGAAAGUAUUAUGUUACGCCGUUCGGAUCUGCACUUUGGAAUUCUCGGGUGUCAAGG	-0.286
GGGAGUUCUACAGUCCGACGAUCCCUGUGCUACACAUCGUAUGUACCGAAUCGGAAAAAAAGGGGAAAAAAAGGAAAAAAAGGAAAGUAUUAUGUUACGCCGUUCGGAUCUGCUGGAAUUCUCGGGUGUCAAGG	0.147
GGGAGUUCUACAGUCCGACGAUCCAAGUCCUGUGCUACACAUCGUAUGUACCGAAUCGGCCCGGGGCCCGGGGCCCGGAAAGUAUUAUGUUACGCCGUUCGGAUCUGCACUUCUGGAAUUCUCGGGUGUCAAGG	-1.45
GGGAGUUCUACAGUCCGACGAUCCAAGUCCUGUGCUACACAUCGUAUGUACCGAAUCGGGAAAGGGAAAGGGGAAAGGGAAAGUAUUAUGUUACGCCGUUCGGAUCUGCACUUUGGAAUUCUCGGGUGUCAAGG	0.623
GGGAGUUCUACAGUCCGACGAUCCUGUGCUACACAUCGUAUGUACCGAAUCGGGGUUUUUUGGGUUUUUUGGGGUUUUUUGGGGAAAGUAUUAUGUUACGCCGUUCGGAUCUGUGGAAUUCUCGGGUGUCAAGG	-0.189

Single results of other studies
Substance	target	assay	test system	conditions	scale	quantity	result
PhoQ, residues 284 288 289 292 302 303 AAQSYM	PhoP, residues 12 14 15 18 19 QYFSL (Escherichia coli, UniProt P23836)	Sort-seq, item: YFP reporter	E. coli	PhoQ-PhoP variant library, with: 10 µM Mg2+	reference: high Mg2+ state, higher = stronger signaling	fold induction	11.1
